Measurements collected from several papers.
Parts stem from different laboratories: compare values within a part only. Substitutions count along the parent as printed.

Sample 1
Target: ABI1, truncated, D143A, DHFR fusion (Arabidopsis thaliana)
Technique: DHFR PCA, deep sequencing
Medium: yeast
Setting: methotrexate growth selection, single substitutions
Added: (+)-ABA 2500 µM
Baseline: wild-type fitted maximum
Direction: higher = stronger binding
Starting sequence: PYL1, truncated, DHFR fusion (Arabidopsis thaliana); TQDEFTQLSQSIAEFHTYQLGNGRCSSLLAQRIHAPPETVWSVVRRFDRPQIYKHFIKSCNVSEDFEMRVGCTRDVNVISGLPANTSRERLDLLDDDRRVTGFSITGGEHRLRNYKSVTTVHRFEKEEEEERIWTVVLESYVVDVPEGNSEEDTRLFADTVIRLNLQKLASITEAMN
Variant	relative binding score [%]
M176F	88.9
D144P	83.9
G102W	20.3
S117N	79.8
G21L	94.2
R74D	3.15
R163H	88.6
A13N	94.4
F103C	50.1
T101G	60
E139N	95.7
F5L	105
T1Q	111
N165S	71.1
A13T	91.1
D3Q	107
D92I	87.1
R98M	104
Q10V	100
F66N	96.1
Q7C	103
T101K	54.6

Sample 2
Target: RING finger protein unkempt homolog, zinc fingers 1-6, GST-SBP tag (UNK, Homo sapiens, UniProt Q9C0B0, residues 30-357)
UniProt Q9C0B0, sequence (30-357, looked up): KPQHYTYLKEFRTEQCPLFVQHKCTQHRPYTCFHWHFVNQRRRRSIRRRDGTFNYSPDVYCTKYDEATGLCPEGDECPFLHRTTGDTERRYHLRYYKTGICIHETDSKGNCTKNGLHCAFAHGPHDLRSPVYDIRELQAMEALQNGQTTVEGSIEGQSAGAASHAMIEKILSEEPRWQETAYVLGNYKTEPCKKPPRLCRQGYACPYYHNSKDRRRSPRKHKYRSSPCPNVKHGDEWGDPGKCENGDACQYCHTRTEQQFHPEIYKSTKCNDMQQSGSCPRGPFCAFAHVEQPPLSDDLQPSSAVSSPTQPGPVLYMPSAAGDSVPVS
Technique: RNA Bind-n-Seq
Form: RNA
Medium: in vitro
Concentration: not given
Setting: RNA with constant flanks, ends assumed
Baseline: input RNA pool
Direction: higher = stronger binding
All sequences stand within: GGGAGUUCUACAGUCCGACGAUC … CAACAGAGGAUUGAGCAUCA
Strand	bound/input enrichment
UGCUGUAGGUUAUUUUAUAAAGAUGCCAAAGGAAACAAGUUUUUCUUUAUUUAUUUUAAGCCGCUAAAACUUUGUACUGUUCUUUAUAUUCUCAGAUAAGAAGGAAAUGUGUGAAAUAAC	0.392 ratio
CUUCAUGUUUCUGAAAAUGUGAUAUUCACAGAUGUGAAUUCUAUACUUCGCUACUUGGCCCGAGUUGCAACUACAGCUGGGUUAUAUGGCUCUAAUCUGAUGGAACAUACUGAGAUUGAU	0.127 ratio
UAAUAAAACCAUUUUAUCUUUAAAAUAGUAAGUAGAAAUCUAAAUAAAUUUUAUGAGCCGGCAGUAACUUUUCUGUUUAGUGAGUGUACUUGCUUUGCUCUUAUCAUUGGUCUUACCUUU	7.05 ratio
UCAGCUUAGGCCUUCCAAGGAACAAUGAAAACUAUGUGCUGGCCAUUUGUUUAUCAGAUUCUCCGUAUAUACUCCUCCCUUCCCACCACCUUCCUGUCAAUUCCAGUACGAGACAGAAGG	0.259 ratio
CUGUGUAAGUAGUGGAUACAACAUAGGAACAUCCAAGGUACUGACUGCAGCUUUAGAUACGUGAUCCGUGUGAGAGUCACAUUCUCUGUGUGAAGAUACAUGUCUUUGAGUAAAUUUCAU	0.141 ratio
GUACCUAGAAAUGCUGAACACUACAAGCAAAGACAUUCACACGGGCAUUAUGGCUGUGAAUACCGGAAGGAUCCAAAAAGACCCGUCGCGUGGAGAAUGGACAGUGAGAAACAUGGACAG	0.271 ratio
UCUCUUCUUACUCAUUACUGCAAAUUGAUUGUCUUUCCCCCCUCCCUCCAGUACCAUAAUCUCCGAGACAAACCUUAAAACAGCUGUUUUUAGGCUGUUCCUUGUACUCUUAGGAUAUUU	1.36 ratio
UUUGACAAGGAUGGCAAUGGUUAUAUCAGUGCAGCAGAACUACGUCACGUCAUGACAAACUCCGGAGAAAAACUAACAGAUGAAGAAGUAGAUGAAAUGAUCAGAGAAGCAGAUAUUGAU	0.642 ratio
GUUGAGCCAGCAAGUCAUGGGAGCAAGGGGUAGAUGGACAGUCCGGCACUACAGAACCGUCACCGGUCUCAAGAGGUCUGGGUGGGAGGUGAAGGGAGAGAACCAAAGCAGAUAGGGAAU	0.542 ratio
UUCCAGUCAUCUACCGCCCUUUUGUGUUCACCUCUUUUACCCUCCAAUCAACUUCCCAGGUCCGCCCAUCAGUCUGCCAUCUGUCCCUCUGCCCACUGAUCCAUCCAUGUAUGCCCUUGC	0.5 ratio
AUGCAGUGGCUUGGGAAACAUGUGGACUCCGAGGGAGAAAUAAAAUCCGGCCAGCUCUCUCUCCGAUUUGUUUCAUCCUACGUGUCUGAAGUAGAAAUAACCCCAUCUUGUAUACCUGUG	0.615 ratio

Sample 3
Target: Interferon regulatory factor 5, full length, phosphomimetic (IRF5, Homo sapiens, UniProt Q13568-2, residues 1-514, S451D/S453D/S456D/S462D)
Technique: protein-binding microarray
Form: double-stranded DNA, one strand shown
Medium: in vitro
Concentration: 940 nM top
Setting: 60-bp whole probe
Added: salmon DNA 0.4 mg/ml
Baseline: random background probes
Direction: higher = stronger binding
All sequences stand within: GCCTAGCAC … GTCTTGATTCGCTTGACGCTGCTG
Strand	fitted relative affinity
ATAGTGATAGCTCTGGTAAAGTGCTAG	-0.668 z-score
TTAGAATTCGGGTATCGATTAGTGCTA	3.05 z-score
GACGGTATCGGTATCGTGACGTGCTAG	7.6 z-score
TTAGGACTGCGTTTCCTTTAGTGCTAG	-0.282 z-score
GACGAATTGGGGACTGGAGACGTGCTA	-0.0896 z-score
GGGTTTTTTAGGCAGACAGCGTGCTAG	0.181 z-score
GACGAACTGGGGACTGGAGAAGTGCTA	0.443 z-score
TTTGATCTCAGTCTCGATTAGTGCTAG	3.56 z-score
TTAGGTCTCGGTTTCGGTTGGTGCTAG	9.38 z-score
TCATCAACCAGTTTTCTTACTGTGCTA	0.596 z-score
TCACTTTTATTTTTTTTACTGTGCTAG	2.06 z-score
GACGGTATCGCGACTGGGGACGTGCTA	0.565 z-score
TTAGGTATCGGACTGCGTTAGTGCTAG	3.57 z-score
TCATTTTTTTTTTTTGGACTGTGCTAG	1.11 z-score
TGAGAACTGGGGTTTCGATTAGTGCTA	5.2 z-score
TACGGTATCGACTTTCGGGACGTGCTA	3.67 z-score
TTAGGTTCCCTTGTCCTTTAGTGCTAG	0.349 z-score
TCATCTCTCATGTTACAACTGTGCTAG	2.01 z-score
TTAGGTATCGGATTTCGGTTAGTGCTA	4.44 z-score
GACGAACTGTGTTTCGAGACGTGCTAG	0.46 z-score
TTAGGACTGGGTCTCAGTTAGTGCTAG	-0.127 z-score

Sample 4
Target: Sal-like protein 4, full length isoform A (SALL4, Homo sapiens, UniProt Q9UJQ4, residues 1-1053)
UniProt Q9UJQ4, sequence (whole entry, looked up): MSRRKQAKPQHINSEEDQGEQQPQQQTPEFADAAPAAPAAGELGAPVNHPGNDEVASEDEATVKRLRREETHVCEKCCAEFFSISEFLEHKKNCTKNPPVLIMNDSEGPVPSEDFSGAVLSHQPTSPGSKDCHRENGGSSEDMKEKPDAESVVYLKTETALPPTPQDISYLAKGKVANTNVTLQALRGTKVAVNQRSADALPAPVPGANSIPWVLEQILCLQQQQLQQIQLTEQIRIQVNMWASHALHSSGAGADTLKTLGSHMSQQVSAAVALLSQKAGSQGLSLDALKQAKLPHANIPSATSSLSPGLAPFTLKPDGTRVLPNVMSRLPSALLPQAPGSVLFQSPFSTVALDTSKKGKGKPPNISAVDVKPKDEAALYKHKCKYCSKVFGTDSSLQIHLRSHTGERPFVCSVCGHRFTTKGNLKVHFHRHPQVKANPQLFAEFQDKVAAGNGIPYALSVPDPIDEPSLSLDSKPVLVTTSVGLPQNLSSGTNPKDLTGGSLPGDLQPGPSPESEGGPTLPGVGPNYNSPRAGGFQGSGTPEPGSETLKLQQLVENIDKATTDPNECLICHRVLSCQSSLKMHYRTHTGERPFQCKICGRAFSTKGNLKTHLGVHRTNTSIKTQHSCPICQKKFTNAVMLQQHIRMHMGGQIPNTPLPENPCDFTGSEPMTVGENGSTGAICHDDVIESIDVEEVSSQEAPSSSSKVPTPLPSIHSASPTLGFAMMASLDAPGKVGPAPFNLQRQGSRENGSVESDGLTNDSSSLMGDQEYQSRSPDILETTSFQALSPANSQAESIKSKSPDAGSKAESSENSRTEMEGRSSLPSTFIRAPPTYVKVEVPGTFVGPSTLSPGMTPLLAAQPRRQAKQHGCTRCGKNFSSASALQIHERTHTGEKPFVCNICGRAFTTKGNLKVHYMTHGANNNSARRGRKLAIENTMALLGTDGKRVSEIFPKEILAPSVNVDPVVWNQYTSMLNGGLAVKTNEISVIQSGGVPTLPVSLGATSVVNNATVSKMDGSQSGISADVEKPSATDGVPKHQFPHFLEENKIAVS
Technique: universal PBM
Form: double-stranded DNA, one strand shown
Medium: in vitro
Concentration: 600 nM
Setting: 8-mer, flanks averaged, mean of replicates
Direction: higher = stronger binding
Strand	E-score
CAGGCTTA	-0.0798
CTATGCTC	-0.048
CGTTATCA	0.262
ACGGTTGG	-0.186
GACGTGGA	-0.131
AGCCTCCT	-0.203
ATGTCACG	0.0801
GGACGAAC	0.0708
AGATCTAT	0.215
AGCCCTCC	-0.358
AGCCAGAA	-0.159
ACGCGTGC	-0.0477
TCCCACAA	0.0078
ACTGAACT	0.038
AGGCCCGG	-0.402
AGTAAACA	0.183
ACGGGAGC	-0.275

Sample 5
Target: BATF2, bZIP domain (human)
Technique: DHFR protein complementation
Medium: yeast
Setting: single substitutions, most at no-binding floor
Baseline: wild-type JUN-FOS pair
Direction: higher = stronger binding
Starting sequence: JUN, bZIP domain (human); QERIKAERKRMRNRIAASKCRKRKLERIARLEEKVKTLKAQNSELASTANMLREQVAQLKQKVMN; partner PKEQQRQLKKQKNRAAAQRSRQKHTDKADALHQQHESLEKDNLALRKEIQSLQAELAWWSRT
Variant	binding fitness
A46S	-0.375 natural log
E32I	-0.717 natural log
L45C	-1.52 natural log
L59V	-0.0559 natural log
Q41N	-0.773 natural log
T48V	-0.306 natural log
K36P	-1.35 natural log
R53P	-1.32 natural log
A46K	-0.137 natural log
Q55F	-1.05 natural log
E54S	-0.524 natural log
A46F	-0.631 natural log
T37Q	-0.0849 natural log
A49E	-1.13 natural log
N42K	-0.594 natural log
R30L	-0.102 natural log
S47Q	-0.12 natural log
T48H	-0.292 natural log
L45T	-1.47 natural log
K34E	-0.33 natural log
V56R	-1.25 natural log
A49N	-1.54 natural log
T48L	-0.232 natural log
V56E	-1.53 natural log

Sample 6
Target: Histone acetyltransferase KAT6A, both winged helices, GST fusion (KAT6A, Homo sapiens, UniProt Q92794, residues 1-181)
Technique: protein binding microarray
Form: double-stranded DNA, one strand shown
Medium: in vitro
Concentration: not given
Setting: 8-mer, flanks averaged, mean of 2 arrays, mostly near background
Baseline: not given
Direction: higher = stronger binding
Construct (chain): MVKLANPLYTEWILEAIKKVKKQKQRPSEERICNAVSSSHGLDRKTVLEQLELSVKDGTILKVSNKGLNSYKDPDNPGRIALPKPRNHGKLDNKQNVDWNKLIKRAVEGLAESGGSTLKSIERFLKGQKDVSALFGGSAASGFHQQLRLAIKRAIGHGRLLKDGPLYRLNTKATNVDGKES
Strand	E-score
AACTTCAC	-0.0141
CATGCTGA	-0.18
CAACGTGG	3.5e-05
AACCGGAT	0.0243
AACCATGC	0.048
ACCGAGCG	0.24
AGTTGTAA	-0.0416
ATAAACCC	-0.0279
GTACGAAA	-0.0574
GAGTTCAA	-0.152
CTTCCTCA	-0.127
CAGGAGTA	-0.185
GTAGAGAA	-0.137
AATCTTCA	-0.075
CACTGACA	-0.0121
AATCAGAC	-0.06

Sample 7
Target: CCND1, cyclin fold, Cln2 fusion (human)
Technique: yeast growth competition, sequencing
Medium: yeast
Setting: weak parent motif
Baseline: not given
Direction: higher = stronger binding
Starting sequence: CDC25A docking peptide (human); PPHRRRLLFACSP
Variant	normalised enrichment score
PPHRRRLYFACSP [L8Y]	-0.126
PPHRCRLLFACSP [R5C]	-0.0887
PPHARRLLFACSP [R4A]	0.218
PPHRRRLLFSCSP [A10S]	0.0768
PPHRRRLLFAASP [C11A]	0.488
PPHRRRLLFACCP [S12C]	0.0842
PPHRARLLFACSP [R5A]	0.247
PPHRRRLLFPCSP [A10P]	-0.325
PPWRRRLLFACSP [H3W]	0.665
PPHRRRKLFACSP [L7K]	0.255
PPHRRRLLCACSP [F9C]	-0.33
TPHRRRLLFACSP [P1T]	-0.00209
PPHRPRLLFACSP [R5P]	0.111
PPHDRRLLFACSP [R4D]	0.153
PPHRRRLLQACSP [F9Q]	-0.471
PPARRRLLFACSP [H3A]	-0.224
PPHRRRLLFACSM [P13M]	0.235
PPHRRRLHFACSP [L8H]	-0.325
PPHRRDLLFACSP [R6D]	-0.0385

Some of these lines once more (sample 1):
Variant	relative binding score [%]
M176F	88.9
D144P	83.9
G102W	20.3
S117N	79.8
G21L	94.2
R74D	3.15
R163H	88.6
A13N	94.4
F103C	50.1
T101G	60
E139N	95.7
F5L	105
T1Q	111
N165S	71.1
A13T	91.1
D3Q	107
D92I	87.1
